Experimental data gathered from unrelated publications.
Compare with care: the assays were run in different laboratories.

SMILES	tested on	assay	test system	setting	quantity	result
CN1CCN(CCNCc2cc3cc(Br)ccc3nc2SCc2ccccc2)CC1	Pseudomonas aeruginosa electron transport chain	ACMA quenching	inverted membrane vesicles	with: NADH	IC50	4.1 µg/mL
COc1cc(C/C=C/c2ccc(O)cc2)ccc1O	STAT3	reporter gene, inhibitor	NCI-H460		IC50	2.05 µg/mL
O=C(/C=C/c1ccc(O)c(O)c1)OCCc1ccccc1	Toxoplasma gondii	parasite growth	HFF, bradyzoite, glutamine-induced		EC50	8.64 µM
CCN(CC)CCCC(C)Nc1ccnc2cc(Cl)ccc12 (stereo not shown)	β-hematin formation	detergent-based			IC50	15 µM
Brc1ccc2nc(SCc3ccccc3)c(CNCCC3CCN(C4CCCC4)CC3)cc2c1	Pseudomonas aeruginosa electron transport chain	ACMA quenching	inverted membrane vesicles	with: NADH	IC50	3.2 µg/mL
CCN(CC)Cc1cc(Nc2ccnc3cc(Cl)ccc23)ccc1O	β-hematin formation	detergent-based			IC50	5 µM
N=C(N)c1ccc(CNC(=O)c2cnn(Cc3ccccc3)c2)cc1	trypsin				IC50	2.5 µM
COc1ccc(C/C=C/c2ccc(O)c(OC)c2)cc1	STAT3	reporter gene, inhibitor	NCI-H460		IC50	1.95 µg/mL
Cc1cnn(Cc2ccc(Cn3cc(C(=O)NCc4ccc(CN)cc4)cn3)cc2)c1	trypsin				IC50	27 µM
COc1ccc(C/C=C/c2ccc(O)cc2)cc1	STAT3	reporter gene, inhibitor	NCI-H460		IC50	2.23 µg/mL
COc1ccc(CNc2c(CO)cnc3c(C4CC4)cc(C#N)cc23)cn1	PDE3	inhibitor			IC50	> 10 µM
CC1=C(C#N)[C@@H](c2ccc(C#N)cc2S(C)(=O)=O)N(C)C(=O)N1c1cccc(C(F)(F)F)c1	trypsin				IC50	> 30 µM
COc1ccnc(CNC(=O)c2cn(Cc3ccc(Cn4ccccc4=O)cc3)nc2C2CC2)c1F	trypsin				IC50	> 40 µM
CC(=O)[C@]1(O)Cc2c(O)c3c(c(O)c2[C@@H](O[C@H]2C[C@H](N)[C@H](O)[C@H](C)O2)C1)C(=O)c1ccccc1C3=O	Toxoplasma gondii	tachyzoite growth, luciferase	ME49-Fluc, type II		EC50	0.67 µM
Oc1ccc(C/C=C(/COCc2ccccc2)c2ccc(OCc3ccccc3)cc2)cc1	STAT3	reporter gene, inhibitor	NCI-H460		IC50	2.64 µg/mL
COc1ccnc(CNC(=O)c2cnn(Cc3ccc(Cn4ccccc4=O)cc3)c2)c1F	trypsin				IC50	> 40 µM

Excerpt of the above:
SMILES	tested on	assay	test system	setting	quantity	result
Cc1cnn(Cc2ccc(Cn3cc(C(=O)NCc4ccc(CN)cc4)cn3)cc2)c1	trypsin				IC50	27 µM
COc1ccc(C/C=C/c2ccc(O)cc2)cc1	STAT3	reporter gene, inhibitor	NCI-H460		IC50	2.23 µg/mL
